{"data": "Published values gathered from unrelated publications", "cell line": "Vero"}
{"Compound": "Oc1cc(CNc2ccccc2)ccc1Oc1ccc(Cl)cc1Cl", "test": "cytotoxicity", "endpoint": "IC50", "value": "8 µg/mL"}
{"Compound": "CC(C)C[C@H](NC(=O)[C@H](CC(C)C)NC(=O)[C@H](CCCCN)NC(=O)CNC(=O)[C@H](CC(C)C)NC(=O)CNC(=O)[C@H](CO)NC(=O)[C@H](CC(C)C)NC(=O)[C@H](CC(C)C)NC(=O)[C@H](CO)NC(=O)[C@H](CCCCN)NC(=O)[C@H](CC(C)C)NC(=O)[C@H](CCCCN)NC(=O)[C@H](CCCCN)NC(=O)[C@H](CC(C)C)NC(=O)[C@H](CC(C)C)NC(=O)[C@H](CC(C)C)NC(=O)CNC(=O)[C@H](CO)NC(=O)[C@H](Cc1c[nH]c2ccccc12)NC(=O)[C@@H](N)CCCCN)C(=O)O", "test": "MTS", "conditions": "24 h", "endpoint": "TC50", "value": "15 µM"}
{"Compound": "N#Cc1ccc(Oc2ccc(Cl)cc2Cl)c(O)c1", "test": "cytotoxicity", "endpoint": "IC50", "value": "4 µg/mL"}
{"Compound": "CC(C)(C)[Si](C)(C)OC[C@H]1O[C@@H](n2cc(I)c(=O)[nH]c2=O)[C@H](I)[C@@H](O[Si](C)(C)C(C)(C)C)[C@@H]1O[Si](C)(C)C(C)(C)C", "test": "MTT", "test system": "DMEM with 10% FBS", "conditions": "72 h", "endpoint": "CC50", "value": "9.25 µM"}
{"Compound": "CCCCCCNCc1ccc(Oc2ccc(Cl)cc2O)c(Cl)c1", "test": "cytotoxicity", "endpoint": "IC50", "value": "8 µg/mL"}
{"Compound": "CC(C)(C)[Si](C)(C)OC[C@H]1O[C@@H](n2cc(Cl)c(=O)[nH]c2=O)[C@H](I)[C@@H](O[Si](C)(C)C(C)(C)C)[C@@H]1O[Si](C)(C)C(C)(C)C", "test": "MTT", "test system": "DMEM with 10% FBS", "conditions": "72 h", "endpoint": "CC50", "value": "12.5 µM"}
{"Compound": "COC(=O)c1cc2c(=O)n3ccccc3nc2n1Cc1ccccc1", "test": "MTT", "conditions": "100 µM, 24 (unit not given)", "endpoint": "viability", "value": "46.9%"}
{"Compound": "O=c1ccn([C@@H]2O[C@H](CO)[C@@H](O)[C@H](O)[C@H]2I)c(=O)[nH]1", "test": "MTT", "test system": "DMEM with 10% FBS", "conditions": "72 h", "endpoint": "CC50", "value": "> 25 µM"}
{"Compound": "CSCC[C@H](NC(=O)[C@@H](NC(C)=O)C(C)C)C(=O)N1CCC[C@H]1C(=O)N[C@@H](Cc1c[nH]c2ccccc12)C(=O)N[C@@H](CC(=O)O)C(=O)N[C@@H](CCC(=O)O)C(=O)N[C@@H](Cc1c[nH]c2ccccc12)C(=O)N[C@@H](CC(C)C)C(=O)N[C@H](C(=O)N[C@@H](CCCCN)C(=O)N[C@@H](CCCNC(=N)N)C(=O)N[C@@H](CCCCN)C(=O)N1CCC[C@H]1C(=O)N[C@@H](CCC(=O)O)C(=O)N[C@@H](CC(C)C)C(=O)N1CCC[C@H]1C(N)=O)[C@@H](C)O", "conditions": "80 µM, overnight", "endpoint": "viability", "value": "~77%"}
{"note": "A few entries again:"}
{"Compound": "CCCCCCNCc1ccc(Oc2ccc(Cl)cc2O)c(Cl)c1", "test": "cytotoxicity", "endpoint": "IC50", "value": "8 µg/mL"}
